Published values gathered from unrelated publications.
Protocols differ between the studies behind these lines. Numbers after ± are the reported error.

The inhibition of `C=CC(=O)N1CCC[C@@H](c2ccc(C(N)=O)c3[nH]ccc23)C1` is reported as 73.4% (TMD8 RAC2 knockout; calcium flux, FLIPR; concentration not given, 4 h preincubation).
The inhibition of `C=C(c1ccc(OC)cc1)[C@@H]1c2cc(Oc3cc(C[C@H]4c5cc(OC)c(OC)cc5CCN4C)ccc3O)c(OC)cc2CCN1C` is reported as 30.7 ± 1% (3T3-L1; adipocyte lipid accumulation, Nile Red staining; 10 µM).
`CC(O)CC(=O)O` (stereo not shown): “z-scored log2 fold change” -0.0853 (binding, equilibrium dialysis LC-MS; 5 µM, thermostabilized A2AR-BRIL construct; baseline: no-protein control, direction not given).
`COc1ccc2nccc(Cc3ccc(OC)c(OC)c3)c2c1` gave an inhibition of 33% (A549; mitochondrial oxygen consumption, Seahorse XF96; 10 µM).
With `COc1ccc(C[C@@H]2c3cc(Oc4cc(C[C@@H]5c6cc(O)c(OC)cc6CCN5C)ccc4O)c(OC)cc3CCN2C)cc1` the inhibition was 29.1 ± 0.7% (3T3-L1; adipocyte lipid accumulation, Nile Red staining; 5 µM).
For `COc1cc2ncnc(Cc3cccc(-c4ccc(C)cc4)c3)c2cc1OC`, the inhibition was 64% (A549; mitochondrial oxygen consumption, Seahorse XF96; 10 µM).
The inhibition of `CCN1CCN(Cc2ccc(Nc3ncc(F)c(-c4cc(F)c5nc(C)n(C(C)C)c5c4)n3)nc2)CC1` is reported as 65% (NLRP3 inflammasome (mouse); mouse BMDM; 10 µM).
`COc1ccc(C[C@@H]2c3cc(Oc4cc(/C=C5\CN(C)CCc6cc(OC)c(OC)cc65)ccc4O)c(OC)cc3CCN2C)cc1` has an inhibition of 18.1 ± 2.6% (3T3-L1; adipocyte lipid accumulation, Nile Red staining; 5 µM).
The inhibition of `COc1cc2ncnc(C(=O)c3cccc4ccccc34)c2cc1OC` is reported as 22% (A549; mitochondrial oxygen consumption, Seahorse XF96; 10 µM).
For `C=CC(=O)N1CCC([C@@H]2CCNc3c(C(N)=O)c(-c4ccc(Oc5ccccc5)cc4)nn32)CC1`, the inhibition was 99.5% (TMD8 RAC2 knockout; calcium flux, FLIPR; concentration not given, 2 h preincubation).
For `COc1cc2ncnc(Cc3cccc(Cl)c3)c2cc1OC`, the inhibition was 16% (A549; mitochondrial oxygen consumption, Seahorse XF96; 10 µM).
`Cc1nn(-c2nc3c(F)cc(F)cc3s2)c(O)c1C(c1ccc(C(F)(F)F)cc1)c1c(C)nn(-c2nc3c(F)cc(F)cc3s2)c1O` has an inhibition of 101% (RAW-ISG; IFN luciferase reporter; 40 µM, added: HT-DNA).
With `COc1cc2c(cc1O)C(Cc1ccc(O)c(-c3c(O)c(OC)cc4c3C(Cc3ccc(O)cc3)N(C)CC4)c1)N(C)CC2` (stereo not shown) the inhibition was 2.3 ± 0.8% (3T3-L1; adipocyte lipid accumulation, Nile Red staining; 10 µM).
`C=CC(=O)Nc1cccc(Oc2nc(Nc3ccc(N4CCN(C)CC4)cc3)nc3ccoc23)c1` has an inhibition of 67.2% (TMD8 RAC2 knockout; calcium flux, FLIPR; concentration not given, 4 h preincubation).
For `COc1ccc(C[C@@H]2c3cc(Oc4cc(C[C@@H]5c6cc(OC)c(OC)cc6CCN5C)ccc4O)c(OC)cc3CCN2C)cc1`, the inhibition was 14.8 ± 1% (3T3-L1; adipocyte lipid accumulation, Nile Red staining; 2.5 µM).
`COc1cc2ncnc(Cc3cccc(-c4ccccc4)c3C)c2cc1OC` has an inhibition of 32% (A549; mitochondrial oxygen consumption, Seahorse XF96; 10 µM).
`Cc1cc(-c2nc(-c3ccc(OC(F)(F)F)cc3)no2)nn1Cc1ccnc(N2CCN(C3CC3)CC2)c1` has an inhibition of greater than 50% (H460; cell proliferation, Incucyte confluence; 0.001 µM; baseline: vehicle).
With `O=c1ncccn1[C@@H]1O[C@H](CO)[C@@H](O)[C@H]1O` the inhibition was roughly 50% (MEC1; cell proliferation, hemacytometer cell count; 200 µM, 48 h pretreatment, added: external beam irradiation 2 Gy).
`C[C@H]1CN(C2COC2)CCN1c1ccc(Nc2cc(-c3ccnc(N4CCn5c(cc6c5CC(C)(C)C6)C4=O)c3CO)cn(C)c2=O)nc1` has an inhibition of 99.5% (TMD8 RAC2 knockout; calcium flux, FLIPR; concentration not given, 2 h preincubation).
`CC[C@H](C)C(=O)O[C@H]1C[C@@H](C)C=C2C=C[C@H](C)[C@H](CC[C@@H]3C[C@@H](O)CC(=O)O3)[C@H]21` gave an inhibition of 24.3 ± 0.7% (3T3-L1; adipocyte lipid accumulation, Nile Red staining; 5 µM).
For `COc1ccc2c(Cc3cccc(-c4ccccc4)c3)ccnc2c1`, the inhibition was 61% (A549; mitochondrial oxygen consumption, Seahorse XF96; 10 µM).
For `COc1cc2c(cc1OC)[C@@H](Cc1ccc(O)c(Oc3cc4c(cc3OC)CCN(C)[C@@H]4Cc3ccc(O)cc3)c1)N(C)CC2`, the inhibition was 25.9 ± 0.9% (3T3-L1; adipocyte lipid accumulation, Nile Red staining; 10 µM).
For `COc1ccc2nccc(Cc3cccc(-c4cnn(C5COC5)c4)c3)c2c1`, the inhibition was 86% (A549; mitochondrial oxygen consumption, Seahorse XF96; 10 µM).
The inhibition of `C=CC(=O)N1CCC[C@@H](n2nc(-c3ccc(Oc4ccccc4)cc3)c3c(N)ncnc32)C1` is reported as 101% (TMD8 RAC2 knockout; calcium flux, FLIPR; concentration not given, 1 h preincubation).
`COc1ccc(Cc2ccnc3ccccc23)cc1OC` has an inhibition of 43% (A549; mitochondrial oxygen consumption, Seahorse XF96; 10 µM).
`N[C@@H](Cc1ccccc1)C(=O)O`: “z-scored log2 fold change” 0.164 (binding, equilibrium dialysis LC-MS; 5 µM, thermostabilized A2AR-BRIL construct; baseline: no-protein control, direction not given).
`CC#CC(=O)N1CCC[C@H]1c1nc(-c2ccc(C(=O)Nc3ccccn3)cc2)c2c(N)nccn12` gave an inhibition of 96.6% (TMD8 RAC2 knockout; calcium flux, FLIPR; concentration not given, 1 h preincubation).
`C=C(c1ccc(O)c(Oc2cc3c(cc2OC)CCN(C)[C@@H]3Cc2ccc(OC)cc2)c1)[C@@H]1c2cc(OC)c(OC)cc2CCN1C` has an inhibition of 29.3 ± 1% (3T3-L1; adipocyte lipid accumulation, Nile Red staining; 10 µM).

For quick reference, copied from above:
For `COc1ccc(C[C@@H]2c3cc(Oc4cc(C[C@@H]5c6cc(OC)c(OC)cc6CCN5C)ccc4O)c(OC)cc3CCN2C)cc1`, the inhibition was 14.8 ± 1% (3T3-L1; adipocyte lipid accumulation, Nile Red staining; 2.5 µM).
`COc1cc2ncnc(Cc3cccc(-c4ccccc4)c3C)c2cc1OC` has an inhibition of 32% (A549; mitochondrial oxygen consumption, Seahorse XF96; 10 µM).
`Cc1cc(-c2nc(-c3ccc(OC(F)(F)F)cc3)no2)nn1Cc1ccnc(N2CCN(C3CC3)CC2)c1` has an inhibition of greater than 50% (H460; cell proliferation, Incucyte confluence; 0.001 µM; baseline: vehicle).
With `O=c1ncccn1[C@@H]1O[C@H](CO)[C@@H](O)[C@H]1O` the inhibition was roughly 50% (MEC1; cell proliferation, hemacytometer cell count; 200 µM, 48 h pretreatment, added: external beam irradiation 2 Gy).
